Experimental data of several laboratories.
Lines come from different studies, so protocols differ.
Chain of UniProt Q13418 (whole entry, looked up): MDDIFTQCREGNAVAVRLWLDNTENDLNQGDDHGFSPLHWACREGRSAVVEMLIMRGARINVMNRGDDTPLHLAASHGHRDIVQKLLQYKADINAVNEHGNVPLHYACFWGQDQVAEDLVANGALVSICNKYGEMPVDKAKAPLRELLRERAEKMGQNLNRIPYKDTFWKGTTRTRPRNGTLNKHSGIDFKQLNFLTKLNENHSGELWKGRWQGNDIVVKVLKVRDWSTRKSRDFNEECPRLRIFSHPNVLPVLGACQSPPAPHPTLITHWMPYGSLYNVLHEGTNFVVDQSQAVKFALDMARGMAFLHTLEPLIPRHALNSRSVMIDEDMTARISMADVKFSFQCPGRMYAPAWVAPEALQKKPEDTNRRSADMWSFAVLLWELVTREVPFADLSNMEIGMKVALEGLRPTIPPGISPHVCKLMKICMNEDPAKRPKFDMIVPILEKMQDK

Structure (SMILES) | target or system | assay | test system | setting | scale | measurement | value
CCOC(=O)[C@@H](N)CCC(=O)N[C@@H](CSCc1ccccc1)C(=O)N[C@@H](C(=O)OCC)c1ccccc1.Cl | human coronavirus OC43 | virus-induced cell killing | MRC-5 | screen | – | maximum inhibition | 36.3%
C[C@]12CC[C@H]3[C@@H](CC=C4CC(O)CC[C@@]43CO)[C@@H]1CCC2O (some centres unmarked) | LX-2 hepatic stellate cells | gene expression, refers to: ACTA2, COL1A1 | – | 100 µM, together with: TGFβ 1 ng/mL | – | fibrotic marker upregulation | inhibited
CN1C(=O)C(C2C3=C(CC(C)(C)CC3=O)Oc3c(O)cccc32)C(=O)N(C)C1=O (centres unmarked) | 3T3-L1 during adipogenesis | Oil Red O | – | IC20 | baseline: untreated | lipid content reduction | ~80%
C[C@]12CCC(=O)C=C1CC[C@@H]1[C@@H]2CC[C@@]2(C)[C@H]1CC[C@]2(C)O | THP-1 | pyroptotic LDH release | – | 2 µM, 40 min, together with: LPS then nigericin | – | inhibition | -8.67%
Cc1ccc(NC(=O)c2ccc(CN3CCN(C)CC3)cc2)cc1Nc1nccc(-c2cccnc2)n1 | human coronavirus OC43 | virus-induced cell killing | MRC-5 | maximum over 10 doses | – | maximum inhibition | 1.36%
CCCCCc1cc(O)c2c(c1)OC(C)(C)[C@@H]1CCC(C)=C[C@@H]21 | capacitated human sperm | CASA | – | 10 µM, 1 h | – | Total motility | decreased
C[C@H]1CN(c2n[nH]c3nc(N[C@H]4CC[C@H](NS(=O)(=O)CCC(F)(F)F)CC4)ncc23)CCO1 | Scaffold protein ILK (ILK, Homo sapiens, UniProt Q13418) | inhibitor, Kinobeads competition profiling | – | 0.16 µM | baseline: vehicle | relative abundance | 1.05
CC(=O)O[C@H]1CC[C@@]2(C)C(=CC[C@@H]3[C@@H]2CC[C@]2(C)C(=O)CC[C@@H]32)C1 | THP-1 | pyroptotic LDH release | – | 2 µM, 40 min, together with: LPS then nigericin | – | inhibition | 4.92%
CC[C@H](C)[C@@H]1NC(=O)[C@H](CO)NC(=O)[C@@H]2CCCN2C(=O)[C@@H](NC(=O)CN)CSSC[C@@H]2NC(=O)CNC(=O)[C@H](C)NC(=O)[C@H](CC(C)C)NC(=O)[C@@H]3CSSC[C@@H](C(=O)NCC(=O)O)NC(=O)[C@H](Cc4ccccc4)NC(=O)CNC(=O)[C@H](CC(N)=O)NC(=O)[C@@H]4CCCN4C(=O)CNC(=O)[C@H](CSSC[C@H](NC(=O)[C@H](CCCNC(=N)N)NC(=O)[C@H](Cc4c[nH]cn4)NC(=O)[C@H](CCCNC(=N)N)NC(=O)[C@H](CCCCN)NC(=O)[C@H](C(C)C)NC(=O)[C@H](CCCNC(=N)N)NC(=O)[C@H](CC(N)=O)NC1=O)C(=O)N[C@@H](CCCCN)C(=O)N[C@@H](CCC(N)=O)C(=O)N[C@@H](CC(=O)O)C(=O)N[C@@H](CO)C(=O)N[C@@H](CC(=O)O)C(=O)N3)NC(=O)[C@H](C(C)C)NC2=O | HEK293-TB | Wnt signaling | – | together with: Wnt3a transfection | – | IC50 | > 100 µM
O=C1NC(=O)C(C2C3=C(CCCC3=O)Oc3ccc([N+](=O)[O-])cc32)C(=O)N1 (centres unmarked) | 3T3-L1 during adipogenesis | Oil Red O | – | IC20 | baseline: untreated | lipid content reduction | ~80%
COc1ccc(-n2nc(C(C)=O)s/c2=N\N=C(/C)c2ccc(NC(C)=O)cc2)cc1 | HepG2 | – | – | 0.312 µM | – | toxicity | 86%
CCCN(CCC)C(=O)Cc1c(-c2ccc(Cl)cc2)nc2ccc(Cl)cn12 | HEK293T ATF4-FLuc reporter | ATF4 reporter gene, activator, luciferase reporter | – | – | – | EC50 | > 9.96 µM
C[C@]12COC(=O)C[C@@H]1CC[C@@H]1[C@@H]2CC[C@@]2(C)[C@H]1CC[C@]2(C)O | THP-1 | pyroptotic LDH release | – | 2 µM, 40 min, together with: LPS then nigericin | – | inhibition | -0.922%
CC[C@H](C)[C@@H]1NC(=O)[C@@H]2CCCN2C(=O)[C@H](CC(C)C)NC(=O)[C@H](CC(C)C)NC(=O)CNC(=O)[C@@H](NC(=O)[C@@H](NC(=O)[C@H](CC(=O)O)NC(=O)CNC(=O)[C@@H](NC(=O)[C@H](C)NC(=O)CNC(=O)[C@H](CCCCN)NC(=O)[C@H](CC(C)C)NC(=O)[C@H](CC(C)C)NC(=O)[C@H](CCCCN)NC(=O)CNC(=O)[C@@H](NC(=O)[C@@H](N)CC(C)C)C(C)C)C(C)C)C(C)C)CSSC[C@@H](C(=O)O)NC1=O | – | RNA-seq, refers to: Ccdc88b | mouse, traumatic brain injury model, frontal cortex and hippocampus | dose not given | baseline: TBI alone | log2 fold change | -2.2

Repeated from above:
Structure (SMILES) | target or system | assay | test system | setting | scale | measurement | value
Cc1ccc(NC(=O)c2ccc(CN3CCN(C)CC3)cc2)cc1Nc1nccc(-c2cccnc2)n1 | human coronavirus OC43 | virus-induced cell killing | MRC-5 | maximum over 10 doses | – | maximum inhibition | 1.36%
CCCCCc1cc(O)c2c(c1)OC(C)(C)[C@@H]1CCC(C)=C[C@@H]21 | capacitated human sperm | CASA | – | 10 µM, 1 h | – | Total motility | decreased
